Experimental data pooled from the literature.
A part holds a random share of what one study measured.

Series 1
Target: Sal-like protein 4, full length isoform B (SALL4, Homo sapiens, UniProt Q9UJQ4-2, residues 1-616)
Technique: universal PBM
Molecule type: double-stranded DNA, one strand shown
Sample: in vitro
Tested at: not given
Setting: 8-mer, flanks averaged, mean of replicates
Direction: higher = stronger binding
Strand	E-score
ACACGCTG	-0.0408
AAACCTAT	0.218
ATCACCCA	-0.167
GCAGAAGC	-0.0806

Series 2
Target: Histone acetyltransferase KAT6A, both winged helices, GST fusion (KAT6A, Homo sapiens, UniProt Q92794, residues 1-181)
Technique: protein binding microarray
Molecule type: double-stranded DNA, one strand shown
Sample: in vitro
Tested at: not given
Setting: 8-mer, flanks averaged, mean of 2 arrays, mostly near background
Baseline: not given
Direction: higher = stronger binding
Construct (chain): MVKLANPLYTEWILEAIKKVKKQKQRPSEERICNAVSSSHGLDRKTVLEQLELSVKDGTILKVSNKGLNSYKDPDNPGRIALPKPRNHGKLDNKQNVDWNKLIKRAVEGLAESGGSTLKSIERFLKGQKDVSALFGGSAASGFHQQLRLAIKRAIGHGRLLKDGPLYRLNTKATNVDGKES
Strand	E-score
AAACCATG	-0.063
ACGTCCAC	-0.0699
AATCCTGA	-0.177
GAGTGACC	-0.109
CTAAGGAG	-0.201
GACAAGTC	-0.0885
AGCAGCTG	-0.197

Series 3
Target: Prothrombin, mature alpha-thrombin (F2, Homo sapiens, UniProt P00734)
Technique: aptamer microarray, sandwich
Molecule type: DNA with 2'F-ANA
Sample: in vitro
Tested at: 200 nM
Setting: whole 15-mer aptamer, many near background
Together with: Cy3 exosite-II aptamer, 400 nM
Direction: higher = stronger binding
Strand	mean fluorescence intensity
GGTTGGTGTGGTTGG (2'F-ANA at 3 6 7 8 9 10 11 12 15)	490 a.u.
GGTTGGTGTGGTTGG (2'F-ANA at 5 8 9 10 12 15)	52.4 a.u.
GGTTGGTGTGGTTGG (2'F-ANA at 1 3 6 8 11 13 14 15)	87.5 a.u.
GGTTGGTGTGGTTGG (2'F-ANA at 5 8 12 14 15)	50.3 a.u.

Other studies, line by line
Substance	target	test	test system	conditions	scale	quantity	result
PhoQ, residues 284 288 289 292 302 303 SNGLAW	PhoP, residues 12 14 15 18 19 AGCRL (Escherichia coli, UniProt P23836)	Sort-seq, measured: YFP reporter	E. coli	PhoQ-PhoP variant library, together with: 10 µM Mg2+	baseline: high Mg2+ state, higher = stronger signaling	fold induction	8.67

Repeated from above (series 2):
Strand	E-score
ACGTCCAC	-0.0699
